# Results from different studies.
# Compare with care: the assays were run in different laboratories. Values joined by “and” are separate records of one study, mostly repeats; a detail may differ. Numbers after ± are the reported error.
Structure (SMILES),cell line,assay,conditions,how to read,quantity,value
COc1nc(NCc2cn(-c3ccc(C(=O)Nc4ccc(C(F)(F)F)cc4)cc3)nn2)nc(OC)n1,HCT-116,annexin V-FITC/PI,"IC50, 24 h",relative to: untreated,apoptotic cells,42 fold
CC(=O)c1nn(-c2ccc(Cl)cc2)/c(=N/N=C(\C)c2ccc(NC(=O)c3ccc(C)cc3)cc2)s1,MCF7,,5 µM,,viability,5.26%
COC(=O)[C@]12CCC(C)(C)C[C@H]1[C@H]1C(=O)C=C3[C@@]4(C)C=C(C#N)C(=O)C(C)(C)[C@@H]4CC[C@@]3(C)[C@]1(C)CC2,HepG2,"high content imaging, measured: DNA structure","6 h, representative mode",,point of departure,1.17 µM
COc1cnccc1Cn1nc(-c2ccc(CO)o2)c2ccccc21,RBE,"cell viability, CellTiter-Glo",,,IC50,0.21 µM
c1ccc2[nH]ccc2c1,HCT-8,"RNA-seq, measured: FAM167A",concentration not given,,"mRNA level, LS mean",3 counts per million
Cc1nc(NC(=O)N2CCC[C@H]2C(N)=O)sc1-c1ccnc(C(C)(C)C(F)(F)F)c1,EFM-19,"cell growth, CellTiter-Glo",120 h,,Hill coefficient GR curve,1.01
Cc1nn(-c2ccccc2)c(C)c1C(=O)Nc1ccc2ccccc2n1,Wnt-HEK293,"Wnt/β-catenin signalling, inhibitor, luciferase reporter",1 µM,,inhibition,80%
COc1cc(Oc2ccnc3cc(OC)c(OC)cc23)ccc1NC(=O)NC(C)c1nccs1 (stereo not shown),hiPSC-derived cardiomyocytes (iCell),impedance (xCELLigence Cardio),"concentration not given, 2 h",relative to: control,beat rate,96.2%
CCN(Cc1ccccc1F)c1ccc(CO)c(Cl)c1,RBE,"cell viability, CellTiter-Glo",,,IC50,0.29 µM
NC(=O)NOCCCCCCCCCCCCCC[P+](c1ccccc1)(c1ccccc1)c1ccccc1.O=C([O-])C(F)(F)F,HCT-116,"cell growth, live-cell imaging","10 µM, control at 90% confluence",,cell confluence,1.89%
CCc1cnc(N2CCC(c3nc(COc4ccc(-n5cnnn5)cc4)cs3)CC2)nc1,HEK293T,"RNA-seq, measured: HSP90AA1 mRNA","10 µM, 6 h",relative to: vehicle,log2 fold change,-0.192
CC/C(=N\NC(=O)NCc1cccc(O)c1)c1ccc(O)c(C)c1O,SK-OV-3,"gene expression, microarray, measured: EDN1","10 µM, 24 h",relative to: DMSO,log ratio,4.61
NCc1ccc(-c2nn(Cc3ccccn3)c3cccnc23)o1,RBE,"cell viability, CellTiter-Glo",,,IC50,3.04 µM
Cc1[nH]nc2ccc(-c3cncc(OC[C@@H](N)Cc4ccccc4)c3)cc12,hiPSC-derived cardiomyocytes (iCell),impedance (xCELLigence Cardio),"concentration not given, 2 h",relative to: control,beat amplitude,144%
OCc1ccc(-c2nn(Cc3ccccc3)c3cccc(Cl)c23)o1,RBE,"cell viability, CellTiter-Glo",,,IC50,5.99 µM
[Cl-].c1csc([I+]c2cccs2)c1,LS174T,"RT-PCR, measured: Nox1, p22phox, NoxA1, NoxO1","10 µM, 24 h, added: DPI 250 nM",,mRNA level,decreased
CC(C)(N)c1cc(C(=O)N[C@@H]2CCc3ccc(Oc4ccnc5c4CCC(=O)N5)cc3C2)cc(C(F)(F)F)c1,SK-MEL-239,"ERK phosphorylation, inhibitor, Western blot, measured: p-ERK/total ERK",1 h,,IC75,0.309 µM
NC(=O)NOCCCCCCCCCCCCCCCCCCCC[P+](c1ccccc1)(c1ccccc1)c1ccccc1.O=C([O-])C(F)(F)F,HCT-116,"cell growth, live-cell imaging","0.01 µM, control at 90% confluence",,cell confluence,89.9 ± 2.91%
Nc1cccc2c1C(=O)N(C1CCC(=O)NC1=O)C2=O (stereo not shown),RPMI-8226,"flow cytometry, measured: CD150",concentration not given,relative to: comparator compound alone,surface marker level,156%
COc1ccc(-n2nc(C(C)=O)s/c2=N\N=C(/C)c2ccc(NC(=O)c3ccc(C)cc3)cc2)cc1,MCF7,,1.25 µM,,viability,4.79%
CC(C)NCC(O)c1ccc(O)c(O)c1 (stereo not shown),mouse ventricular cardiomyocytes,,"dose not given, 0.079 s",,sarcomere length,1.78 µm
NC(=O)NOCCCCCCCCCCCC[P+](c1ccccc1)(c1ccccc1)c1ccccc1.O=C([O-])C(F)(F)F,HCT-116,"cell growth, live-cell imaging","2.5 µM, control at 90% confluence",,cell confluence,15.6 ± 1.06%
Cc1cnc(NC2CCOCC2)nc1-n1cnc(C(=O)NC(CN)c2cc(F)cc(Cl)c2)c1 (stereo not shown),Rec1,flow cytometry,"1 µM, 72 h",,G1 phase cells,51.2%
C=Cc1c2[n-]c(c1C)/C=c1\[n-]/c(c(C)c1C=C)=C\c1[n-]c(c(CCC(=O)O)c1C)/C=c1\[n-]c(c(C)c1CCC(=O)O)=C2.[Sn+4],SH-SY5Y,"RNA-seq, measured: ELL2 mRNA","5 µM, 5 h",relative to: untreated cells,fold change,2.24
Cn1cc(Nc2nccc(-c3ccc4c(c3)CN(C3COC3)CC[C@H]4NC(=O)c3cn(C(C)(C)C)nn3)n2)cn1,mouse splenic B cells,measured: Neuroinflammation signalling pathway,"30 mg/kg, IgD-activated in vivo","relative to: vehicle, direction not given",pathway activation z-score,3.78
CCCCc1nc(Cl)c(CO)n1Cc1ccc(-c2ccccc2-c2nn[nH]n2)cc1,human PBMC,"RNA-seq, measured: MMP14 mRNA","10 µg/mL, 24 h",relative to: untreated control,log2 fold change,1.82
CCN(Cc1ccncc1)c1ccc(CO)c(Cl)c1,RBE,"cell viability, CellTiter-Glo",,,IC50,0.98 µM
Cc1n[nH]c2nc(-c3ccc(Cl)cc3)c3c(NC(=O)c4ccccc4)nnc-3n12,SF-295,SRB,"10 µM, NCI60 single-dose screen",relative to: untreated,cell growth,102%
Cc1cnc2ccc3c(c2n1)N1CCC(O)N=C1N3C (stereo not shown),BALB/c 3T3,colony formation,0.1 µM,,plating efficiency,51%
COc1ncccc1Cn1nc(-c2ccc(CO)o2)c2ccccc21,RBE,"cell viability, CellTiter-Glo",,,IC50,0.23 µM
COc1cc(/C=C/C(=O)N2CCC=CC2=O)cc(OC)c1OC,MDA-MB-468,"qRT-PCR, measured: SOD1","30 µM, 6 h",relative to: time zero,mRNA level,135 ± 11.2%
COc1cnc2cccc(N3CCc4c(cc(Cn5ccnc5C)cc4-c4cn(C)nc4C(F)(F)F)C3=O)c2c1,NCI-H1373,"cell growth, inhibitor",120 h,,EC50,> 30 µM
OCc1ccc(-c2nn(CCc3ccccc3)c3ccccc23)o1,RBE,"cell viability, CellTiter-Glo",,,IC50,5.82 µM
Cn1c(Nc2nc3ccc(C(F)(F)F)cc3s2)nc2cc(C(=O)NCCOCCO)ccc21,SH-SY5Y,"RNA-seq, measured: PTGS1 mRNA","5 µM, 5 h",relative to: untreated cells,fold change,4.03
C[C@H](CCC(=O)NCCS(=O)(=O)O)[C@H]1CC[C@H]2[C@@H]3CC[C@@H]4C[C@H](O)CC[C@]4(C)[C@H]3CC[C@]12C,PCK rat cholangiocytes,,20 µM,relative to: untreated,PCNA-positive nuclei,76%
CCn1cc(-c2cc(Cn3ccoc3=N)cc3c2CCN([C@@H](C)c2cc(OC)ccn2)C3=O)c(C(F)(F)F)n1,SNU-16,"cell growth, inhibitor",120 h,,EC50,1.3 µM
CN1CC2(NN=C(c3ccccc3)S2)c2ccccc21 (stereo not shown),H2373 and H2461 mesothelioma,MTT,"10 µM, 24 h",,viability loss,60 to 80%
COc1ccc(NC(=S)N/N=C/c2cccc3cc4ccccc4nc23)cc1,HeLa,annexin V/PI,"concentration not given, 48 h, dosed at IC50",,late apoptotic cells,17.7%
COc1c(Cl)cc2c([nH]c3cnccc32)c1NC(=O)c1cccnc1C,hiPSC-derived cardiomyocytes (iCell),impedance (xCELLigence Cardio),"concentration not given, 2 h",relative to: control,beat rate,102%
[177Lu+3].[Cl-].[Cl-].[Cl-],4T1,flow cytometry,"concentration not given, 72 h",,viability decrease,35.8 ± 2.7%
O=C(/C=C/C=C/C=C/C1CCCCC1)NC1=C[C@@](O)(/C=C/C=C/C=C/C(=O)NC2=C(O)CCC2=O)[C@@H]2O[C@@H]2C1=O,NCI-H810,"cell growth, CellTiter-Glo",78 h,,GI50,19.4 µM
Cc1cccc(-c2noc(CCC(=O)Nc3ccccc3)n2)c1,BV-2,measured: caspase-8,"30 nM, added: high glucose",relative to: high glucose,protein level,decreased
Cn1cc(-c2ccc(-c3cncc(Cl)c3N3CCC4(CCNC4=O)CC3)cc2)cn1,COLO 205,"gene expression, microarray, measured: SOX8 mRNA","concentration not given, 2 h",relative to: untreated cells,log2 fold change,2.42
CCN(CC)CCCC(C)Nc1ccnc2cc(Cl)ccc12 (stereo not shown),hiPSC-derived cardiomyocytes,perforated patch voltage clamp,"5 µM, added: hyperpolarizing step to -120 mV",,funny current,-15.1 pA and -23.7 pA and -48.6 pA
C=Cc1c(C)c2cc3nc(c(CC(=O)O)c4[nH]c(cc5nc(cc1[nH]2)C(C)=C5CC)c(C)c4C(=O)O)[C@@H](CCC(=O)O)[C@@H]3C,4T1,wound healing,"concentration not given, no laser irradiation",,cell motility,51.7% and 47.1% and 38.1%
CNC(=O)c1c(F)cccc1Nc1nc(Nc2cc3c(cc2OC)CCN3C(=O)CN(C)C)nc2[nH]ccc12,hiPSC-derived cardiomyocytes (iCell),impedance (xCELLigence Cardio),"concentration not given, 2 h",relative to: control,beat amplitude,104%
CCN(CCO)CCCC(C)Nc1ccnc2cc(Cl)ccc12 (stereo not shown),human PBMC,"qRT-PCR, measured: MX1 mRNA","1000 nM, added: ssRNA",,inhibition,6 ± 14%
CCCCc1oc2ccc(NS(C)(=O)=O)cc2c1C(=O)c1ccc(OCCCN(CCCC)CCCC)cc1,human embryonic stem cell aggregates,"mRNA level, microarray, measured: DKK1","0.5 µM, 120 h","relative to: untreated, down-regulated",fold change,3.4 fold
CCn1cc(-c2cc(Cn3ccnc3)cc3c2CCN([C@H](c2cc(OC)ccn2)C2CC2)C3=O)c(C(F)(F)F)n1,IM95,"cell growth, inhibitor",120 h,,EC50,4.68 µM
Cc1cc(Nc2ncc(Cl)c(Nc3ccccc3S(=O)(=O)C(C)C)n2)c(OC(C)C)cc1C1CCNCC1,CLB-GE,"phosphoproteomics LC-MS/MS, measured: PDCD11 phosphorylation","200 nM, 60 min",relative to: untreated,log2 fold change,-1.64
Cc1cccc(-c2[nH]c(CNc3ccccc3F)nc2-c2ccc3ncnn3c2)n1,MM1.S,XTT,0.6 µM,relative to: untreated,viability,82%
NC(=O)NOCCCCCCCCCCCCCCCC[P+](c1ccccc1)(c1ccccc1)c1ccccc1.O=C([O-])C(F)(F)F,HCT-116,"cell growth, live-cell imaging","0.4 µM, control at 90% confluence",,cell confluence,71.1%
